Assay results from different studies.
Parts stem from different laboratories: compare values within a part only. Positions count from the first letter of the parent shown.
Sequence of UniProt P16591 (whole entry, looked up): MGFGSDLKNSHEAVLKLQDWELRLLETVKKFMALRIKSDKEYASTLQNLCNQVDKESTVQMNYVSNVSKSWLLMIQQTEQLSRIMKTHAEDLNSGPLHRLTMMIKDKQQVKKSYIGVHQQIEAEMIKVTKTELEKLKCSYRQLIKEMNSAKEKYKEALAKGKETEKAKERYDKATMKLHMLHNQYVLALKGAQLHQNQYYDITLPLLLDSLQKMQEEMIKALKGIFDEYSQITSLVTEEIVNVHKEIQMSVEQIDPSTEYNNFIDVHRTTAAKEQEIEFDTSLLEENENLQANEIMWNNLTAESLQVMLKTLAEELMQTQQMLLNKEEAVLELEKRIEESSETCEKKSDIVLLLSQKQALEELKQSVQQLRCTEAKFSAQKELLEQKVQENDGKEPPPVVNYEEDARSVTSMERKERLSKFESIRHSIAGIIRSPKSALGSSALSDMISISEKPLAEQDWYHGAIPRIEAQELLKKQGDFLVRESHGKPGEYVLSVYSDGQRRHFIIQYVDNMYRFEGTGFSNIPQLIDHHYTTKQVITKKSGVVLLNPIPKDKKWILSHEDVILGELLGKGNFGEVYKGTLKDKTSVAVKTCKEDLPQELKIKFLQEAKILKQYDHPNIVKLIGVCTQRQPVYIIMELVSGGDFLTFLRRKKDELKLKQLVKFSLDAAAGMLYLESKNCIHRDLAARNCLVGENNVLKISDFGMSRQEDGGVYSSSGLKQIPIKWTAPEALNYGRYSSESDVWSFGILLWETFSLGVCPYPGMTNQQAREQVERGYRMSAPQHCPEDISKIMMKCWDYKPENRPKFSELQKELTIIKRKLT
Sequence of UniProt P11802 (whole entry, looked up): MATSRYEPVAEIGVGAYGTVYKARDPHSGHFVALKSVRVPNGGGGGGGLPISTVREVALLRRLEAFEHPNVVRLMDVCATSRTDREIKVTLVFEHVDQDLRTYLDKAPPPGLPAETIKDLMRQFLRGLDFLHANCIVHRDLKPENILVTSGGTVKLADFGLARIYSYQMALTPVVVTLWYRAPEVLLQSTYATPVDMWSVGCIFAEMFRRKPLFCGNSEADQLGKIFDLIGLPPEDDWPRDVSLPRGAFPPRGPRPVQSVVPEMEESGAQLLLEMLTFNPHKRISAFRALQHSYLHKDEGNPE
Sequence of UniProt Q9HC98 (whole entry, looked up): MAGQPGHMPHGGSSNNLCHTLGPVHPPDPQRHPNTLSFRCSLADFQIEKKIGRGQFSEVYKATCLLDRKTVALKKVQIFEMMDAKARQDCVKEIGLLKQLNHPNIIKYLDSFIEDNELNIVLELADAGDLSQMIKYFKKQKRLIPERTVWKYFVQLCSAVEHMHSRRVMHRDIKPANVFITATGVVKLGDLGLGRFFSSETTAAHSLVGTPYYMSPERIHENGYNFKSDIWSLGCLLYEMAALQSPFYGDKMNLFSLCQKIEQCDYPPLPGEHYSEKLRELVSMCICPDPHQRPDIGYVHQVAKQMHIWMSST
Sequence of UniProt Q8WXR4 (whole entry, looked up): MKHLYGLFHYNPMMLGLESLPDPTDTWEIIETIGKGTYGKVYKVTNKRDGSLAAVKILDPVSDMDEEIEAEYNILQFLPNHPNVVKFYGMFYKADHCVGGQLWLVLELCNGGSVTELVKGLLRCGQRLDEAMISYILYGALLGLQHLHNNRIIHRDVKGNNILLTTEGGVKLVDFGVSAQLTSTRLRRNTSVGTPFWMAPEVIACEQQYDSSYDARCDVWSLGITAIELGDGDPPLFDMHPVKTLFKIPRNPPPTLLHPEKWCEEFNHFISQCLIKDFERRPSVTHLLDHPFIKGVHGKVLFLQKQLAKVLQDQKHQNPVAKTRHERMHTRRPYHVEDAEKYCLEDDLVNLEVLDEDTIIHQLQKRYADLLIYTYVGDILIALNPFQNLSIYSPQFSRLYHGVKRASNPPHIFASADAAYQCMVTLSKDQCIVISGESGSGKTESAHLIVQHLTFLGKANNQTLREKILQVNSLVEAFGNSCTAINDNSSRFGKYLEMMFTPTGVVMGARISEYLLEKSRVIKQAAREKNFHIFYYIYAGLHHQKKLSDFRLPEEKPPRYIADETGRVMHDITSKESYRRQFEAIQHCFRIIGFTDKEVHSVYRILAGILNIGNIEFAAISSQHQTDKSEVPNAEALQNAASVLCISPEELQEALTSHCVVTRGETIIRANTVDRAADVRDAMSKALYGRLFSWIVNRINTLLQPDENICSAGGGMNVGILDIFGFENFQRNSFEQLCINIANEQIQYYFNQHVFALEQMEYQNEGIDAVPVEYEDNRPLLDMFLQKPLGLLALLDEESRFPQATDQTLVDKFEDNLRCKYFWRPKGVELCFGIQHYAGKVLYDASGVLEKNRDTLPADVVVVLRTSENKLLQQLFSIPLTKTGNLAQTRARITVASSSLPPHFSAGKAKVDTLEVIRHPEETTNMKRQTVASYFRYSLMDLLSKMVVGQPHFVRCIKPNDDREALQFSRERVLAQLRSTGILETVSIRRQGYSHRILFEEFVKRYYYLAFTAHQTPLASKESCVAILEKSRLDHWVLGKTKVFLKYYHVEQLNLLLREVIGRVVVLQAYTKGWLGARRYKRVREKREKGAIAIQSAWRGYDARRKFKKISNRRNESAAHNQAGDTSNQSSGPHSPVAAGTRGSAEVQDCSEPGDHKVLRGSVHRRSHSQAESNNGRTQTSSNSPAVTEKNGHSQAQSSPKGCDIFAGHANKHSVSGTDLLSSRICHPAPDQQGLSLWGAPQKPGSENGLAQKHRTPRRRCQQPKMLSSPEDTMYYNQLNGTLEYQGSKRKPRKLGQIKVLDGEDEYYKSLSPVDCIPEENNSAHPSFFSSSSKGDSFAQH
Sequence of UniProt P07949 (whole entry, unmodified, looked up): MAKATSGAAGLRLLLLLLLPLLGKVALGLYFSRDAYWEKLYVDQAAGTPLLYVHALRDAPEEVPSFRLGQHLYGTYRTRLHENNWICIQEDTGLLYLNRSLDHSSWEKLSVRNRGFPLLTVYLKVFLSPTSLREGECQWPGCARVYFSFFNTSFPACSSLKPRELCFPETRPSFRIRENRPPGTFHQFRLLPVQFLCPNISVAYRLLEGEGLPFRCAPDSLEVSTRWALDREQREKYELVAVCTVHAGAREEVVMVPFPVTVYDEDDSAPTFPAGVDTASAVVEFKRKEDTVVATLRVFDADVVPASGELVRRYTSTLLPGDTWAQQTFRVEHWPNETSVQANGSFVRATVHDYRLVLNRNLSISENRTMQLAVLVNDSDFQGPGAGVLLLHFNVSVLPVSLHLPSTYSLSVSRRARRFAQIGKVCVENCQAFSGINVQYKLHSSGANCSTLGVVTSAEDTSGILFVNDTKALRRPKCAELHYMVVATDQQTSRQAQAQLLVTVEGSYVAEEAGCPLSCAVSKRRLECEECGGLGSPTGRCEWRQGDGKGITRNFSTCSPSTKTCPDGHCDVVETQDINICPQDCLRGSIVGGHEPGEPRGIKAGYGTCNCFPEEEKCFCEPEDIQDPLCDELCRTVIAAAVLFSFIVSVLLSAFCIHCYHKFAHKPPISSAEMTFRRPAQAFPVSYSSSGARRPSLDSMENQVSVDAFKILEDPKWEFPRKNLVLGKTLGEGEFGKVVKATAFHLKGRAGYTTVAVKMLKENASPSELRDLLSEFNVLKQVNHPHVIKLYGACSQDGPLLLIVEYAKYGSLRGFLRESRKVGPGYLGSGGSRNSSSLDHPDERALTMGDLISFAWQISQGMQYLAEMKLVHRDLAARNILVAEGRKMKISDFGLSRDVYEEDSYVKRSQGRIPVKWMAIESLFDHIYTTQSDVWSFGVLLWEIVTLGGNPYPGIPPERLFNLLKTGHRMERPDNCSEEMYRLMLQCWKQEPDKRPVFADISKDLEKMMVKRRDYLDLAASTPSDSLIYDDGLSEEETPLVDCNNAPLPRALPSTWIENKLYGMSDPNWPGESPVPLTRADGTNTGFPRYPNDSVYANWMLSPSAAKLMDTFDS
Sequence of UniProt Q13554 (whole entry, looked up): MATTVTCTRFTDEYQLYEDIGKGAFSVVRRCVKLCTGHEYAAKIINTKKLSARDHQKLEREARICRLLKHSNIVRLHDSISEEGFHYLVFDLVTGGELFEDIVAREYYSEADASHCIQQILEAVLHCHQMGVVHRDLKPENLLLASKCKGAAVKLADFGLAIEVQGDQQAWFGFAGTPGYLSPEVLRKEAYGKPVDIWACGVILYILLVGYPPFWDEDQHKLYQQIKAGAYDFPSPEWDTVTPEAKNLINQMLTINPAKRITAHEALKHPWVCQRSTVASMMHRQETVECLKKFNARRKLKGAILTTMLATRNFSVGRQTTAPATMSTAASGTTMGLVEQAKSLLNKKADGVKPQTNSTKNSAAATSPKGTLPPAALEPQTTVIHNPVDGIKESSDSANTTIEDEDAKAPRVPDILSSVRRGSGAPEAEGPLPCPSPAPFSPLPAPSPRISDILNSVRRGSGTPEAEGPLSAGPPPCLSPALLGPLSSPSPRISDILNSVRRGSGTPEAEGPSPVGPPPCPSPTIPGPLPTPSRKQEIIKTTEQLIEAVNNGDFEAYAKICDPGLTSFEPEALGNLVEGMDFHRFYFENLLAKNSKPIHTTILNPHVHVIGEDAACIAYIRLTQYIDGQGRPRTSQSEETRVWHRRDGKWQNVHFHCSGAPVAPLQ
Sequence of UniProt Q8WU08 (whole entry, looked up): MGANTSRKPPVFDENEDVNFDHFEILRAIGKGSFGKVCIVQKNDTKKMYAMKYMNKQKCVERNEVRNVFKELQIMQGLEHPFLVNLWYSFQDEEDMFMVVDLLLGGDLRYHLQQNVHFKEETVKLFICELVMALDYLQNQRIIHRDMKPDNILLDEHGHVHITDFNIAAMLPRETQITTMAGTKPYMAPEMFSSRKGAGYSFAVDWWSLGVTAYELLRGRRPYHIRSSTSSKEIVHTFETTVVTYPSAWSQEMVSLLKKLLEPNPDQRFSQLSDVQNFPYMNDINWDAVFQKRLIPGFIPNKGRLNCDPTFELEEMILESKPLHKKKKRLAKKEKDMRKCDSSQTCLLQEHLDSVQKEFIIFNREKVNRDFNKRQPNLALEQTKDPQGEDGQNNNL

Study 1 — method: protein binding microarray; molecule type: double-stranded DNA, one strand shown; medium: in vitro; concentration: not given; relative to: not given; direction: higher = stronger binding; measurement: E-score
Target: Histone acetyltransferase KAT6A, both winged helices, GST fusion (KAT6A, Homo sapiens, UniProt Q92794, residues 1-181)
Setting: 8-mer, flanks averaged, mean of 2 arrays, mostly near background
Residues (chain): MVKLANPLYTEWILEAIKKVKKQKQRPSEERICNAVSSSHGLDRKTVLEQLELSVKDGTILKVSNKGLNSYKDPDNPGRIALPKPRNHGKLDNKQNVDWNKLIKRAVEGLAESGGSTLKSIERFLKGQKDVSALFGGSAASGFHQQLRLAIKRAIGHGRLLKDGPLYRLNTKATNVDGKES
CAACAGTC: -0.0912
CATTACCC: 0.0397
GAGGCGAC: -0.0276
CGCTCGTA: 0.153
CATATTCG: 0.00651
CGCCTTTC: 0.246
CACCTCTA: -0.112
AAGATCGA: 0.0386

Study 2 — method: competition with immobilised ligand; concentration: 1 µM; measurement: remaining binding
Compound: CNC(=O)Nc1ccc2c(c1)[C@@]1(CC2)OC(=O)N(CC(=O)N(Cc2ccc(F)cc2)[C@@H](C)C(F)(F)F)C1=O
Receptor-type tyrosine-protein kinase FLT3 (FLT3, Homo sapiens, UniProt P36888, ITD); cell-free assay: 87%
Phosphatidylinositol 5-phosphate 4-kinase type-2 beta (PIP4K2B, Homo sapiens, UniProt P78356); cell-free assay: 60%
Tyrosine-protein kinase Blk (BLK, Homo sapiens, UniProt P51451); cell-free assay: 100%
Tyrosine-protein kinase Fer (FER, Homo sapiens, UniProt P16591); cell-free assay: 79%
Proto-oncogene tyrosine-protein kinase receptor Ret (RET, Homo sapiens, UniProt P07949, M918T); cell-free assay: 100%
Serine/threonine-protein kinase 32A (STK32A, Homo sapiens, UniProt Q8WU08); cell-free assay: 100%
Calcium/calmodulin-dependent protein kinase type II subunit beta (CAMK2B, Homo sapiens, UniProt Q13554); cell-free assay: 100%
Epidermal growth factor receptor (EGFR, Homo sapiens, UniProt P00533, L858R/T790M); cell-free assay: 83%
Serine/threonine-protein kinase Nek6 (NEK6, Homo sapiens, UniProt Q9HC98); cell-free assay: 100%
Cyclin-dependent kinase 4, with cyclin D3 (CDK4, Homo sapiens, UniProt P11802); cell-free assay: 100%
Cyclin-dependent kinase 14 (CDK14, Homo sapiens, UniProt O94921); cell-free assay: 100%
Interferon-induced, double-stranded RNA-activated protein kinase (EIF2AK2, Homo sapiens, UniProt P19525); cell-free assay: 100%
Myosin-IIIb (MYO3B, Homo sapiens, UniProt Q8WXR4); binding: 100%

Study 3 — method: DHFR PCA, deep sequencing; medium: yeast; together with: (+)-ABA 17 µM; relative to: wild-type fitted maximum; direction: higher = stronger binding; measurement: relative binding score
Target: ABI1, truncated, D143A, DHFR fusion (Arabidopsis thaliana)
Setting: methotrexate growth selection, single substitutions
Parent: PYL1, truncated, DHFR fusion (Arabidopsis thaliana); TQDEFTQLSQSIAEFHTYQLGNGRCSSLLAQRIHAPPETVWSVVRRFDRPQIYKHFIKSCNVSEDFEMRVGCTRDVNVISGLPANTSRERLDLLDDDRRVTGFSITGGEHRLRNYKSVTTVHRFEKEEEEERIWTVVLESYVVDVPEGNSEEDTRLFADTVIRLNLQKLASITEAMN; partner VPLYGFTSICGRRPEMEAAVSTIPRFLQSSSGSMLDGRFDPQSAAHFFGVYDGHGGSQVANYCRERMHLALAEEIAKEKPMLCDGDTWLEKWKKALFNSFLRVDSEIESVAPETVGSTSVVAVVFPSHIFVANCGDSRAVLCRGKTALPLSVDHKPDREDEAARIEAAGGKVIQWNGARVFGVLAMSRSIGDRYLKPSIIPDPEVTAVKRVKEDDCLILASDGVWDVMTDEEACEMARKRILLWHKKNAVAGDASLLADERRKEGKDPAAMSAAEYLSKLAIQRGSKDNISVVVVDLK
G107H: 44%
C25A: 82.1%
C25S: 49.9%
P37Y: 23%
A35P: -13.6%
V40T: 3.06%
N85C: 82.3%
D96P: 21.1%

Study 4 — effect on: enzyme activity; mode: inhibitor; concentration: 0.5 µM; relative to: control; measurement: remaining activity
SMILES: O=C1Nc2ccc(Br)cc2/C1=C/c1cc2c([nH]1)CCCC2
Serine/threonine-protein kinase ULK2 (ULK2, Homo sapiens, UniProt Q8IYT8): 114%
Wee1-like protein kinase (WEE1, Homo sapiens, UniProt P30291): 95.9%
Serine/threonine-protein kinase A-Raf (ARAF, Homo sapiens, UniProt P10398): 106%

Some of these lines once more (study 3):
P37Y: 23%
C25A: 82.1%
C25S: 49.9%
D96P: 21.1%
